Measurements collected from several papers.
A part holds a random share of what one study measured.

Study 1
Target: Ras GTPase-activating protein-binding protein 1, RRM domain (G3BP1, Homo sapiens, UniProt Q13283)
UniProt Q13283, sequence (whole entry, looked up): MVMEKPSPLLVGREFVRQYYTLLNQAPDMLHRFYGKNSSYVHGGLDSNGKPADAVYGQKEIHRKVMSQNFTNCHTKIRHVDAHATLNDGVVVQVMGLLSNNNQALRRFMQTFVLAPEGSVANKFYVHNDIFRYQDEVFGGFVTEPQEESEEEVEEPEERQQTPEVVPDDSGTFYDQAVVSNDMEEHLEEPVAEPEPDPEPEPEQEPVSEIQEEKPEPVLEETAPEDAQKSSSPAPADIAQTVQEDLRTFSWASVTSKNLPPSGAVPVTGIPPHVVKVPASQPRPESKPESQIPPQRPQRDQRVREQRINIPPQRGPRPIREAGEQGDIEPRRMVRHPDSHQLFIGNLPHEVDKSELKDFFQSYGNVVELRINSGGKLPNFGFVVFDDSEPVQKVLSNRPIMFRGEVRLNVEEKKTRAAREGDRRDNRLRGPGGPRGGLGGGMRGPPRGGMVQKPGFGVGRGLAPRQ
Method: RNA Bind-n-Seq
Form: RNA
Matrix: in vitro
Tested at: 1 µM
Setting: whole 134-nt RNA, ends assumed
Together with: 150 mM KCl
Baseline: input library
Reading: higher = stronger binding
Shared flanks, not repeated: GGGAGUUCUACAGUCCGACGAUC … UGGAAUUCUCGGGUGUCAAGG
| Strand | log2 enrichment |
| --- | --- |
| UCCUCAAGUCCUGUGCUACACAUCGUAUGUACCGAAUCGGUGGUGGGGUGGGAAAGUAUUAUGUUACGCCGUUCGGAUCUGCACUUCCAG | -0.113 |
| UCCUCAAGUCCUGUGCUACACAUCGUAUGUACCGAAUCGGAGGGGAGGAGGGAAAGUAUUAUGUUACGCCGUUCGGAUCUGCACUUCCAG | -0.223 |
| UUUGGCAAUGAGAUCUAAACCAGACAAAGACCUCCUUAUGGAAGAAGAUGACAUGGCCUUGGCAAAUGUAGUCAUGCAGGAAGCUCAGAA | 0.47 |
| UCCUGUGCUACACAUCGUAUGUACCGAAUCGGGGCCCCCGGGCCCCCGGGGCCCCCGGGAAAGUAUUAUGUUACGCCGUUCGGAUCUGCA | -0.701 |
| CACAGACAACACGCACCCACACAGACACAGAGGGAAGGGGUUGGGAUGGGGACCGGGUGCACAGCAGGGCGGGGUAGGACCCCAGCCCCU | 0.405 |
| CAAGUCCUGUGCUACACAUCGUAUGUACCGAAUCGGGGUGGGGAGGGGAAAGGGGAAAGUAUUAUGUUACGCCGUUCGGAUCUGCACUUC | 1.25 |
| AGUCCUGUGCUACACAUCGUAUGUACCGAAUCGGUUUUUUUGGUUUUUGGUUUUUGGAAAGUAUUAUGUUACGCCGUUCGGAUCUGCACU | -0.171 |
| CACAGACAACACGCACCCACACAGACACAGAGGGAAGGGGUUGGGAUGGGGACAGGGUGCACAGCAGGGCGGGGUAGGACCCCAGCAAAU | -0.172 |
| ACCAUGCAGGUGGGCAUCUUUGGGAAGUGGGGCAAGGGGGGGAUAGGGAGGGCGGUAACACUUUGGGAACAGGUGGUCCCAGGUCGUUUC | 0.797 |

Study 2
Target: Prothrombin, mature alpha-thrombin (F2, Homo sapiens, UniProt P00734)
Method: aptamer microarray, sandwich
Form: DNA with 2'F-ANA
Matrix: in vitro
Tested at: 200 nM
Setting: whole 15-mer aptamer, many near background
Together with: Cy3 exosite-II aptamer, 400 nM
Reading: higher = stronger binding
Strand: GGTTGGTGTGGTTGG
| Modification | mean fluorescence intensity [a.u.] |
| --- | --- |
| 2'F-ANA at 2 5 6 13 14 15 | 46.9 |
| 2'F-ANA at 1 3 5 7 8 10 11 15 | 46 |
| 2'F-ANA at 5 6 7 9 11 14 15 | 46.5 |
| 2'F-ANA at 1 2 4 6 9 11 13 | 74.2 |
| 2'F-ANA at 1 2 5 6 11 12 14 | 91.5 |
| 2'F-ANA at 6 7 8 11 12 14 15 | 247 |
| 2'F-ANA at 6 10 14 | 112 |
| 2'F-ANA at 1 2 4 6 9 | 112 |
| 2'F-ANA at 1 3 4 5 6 8 9 14 | 44.8 |
| 2'F-ANA at 3 6 7 10 11 12 13 14 | 370 |
| 2'F-ANA at 4 5 6 8 9 13 14 15 | 43 |
| 2'F-ANA at 2 3 4 5 6 8 13 15 | 57.5 |
| 2'F-ANA at 1 2 3 4 10 14 | 50.6 |

Study 3
Target: Interferon regulatory factor 7, full length, phosphomimetic (IRF7, Homo sapiens, UniProt Q92985, residues 1-503, S471D/S472D/S475D/S476D/S477D/S483D/S484D/S487D)
Method: protein-binding microarray
Form: double-stranded DNA, one strand shown
Matrix: in vitro
Tested at: 2200 nM top
Setting: 60-bp whole probe
Together with: salmon DNA 0.4 mg/ml
Baseline: random background probes
Reading: higher = stronger binding
Shared flanks, not repeated: GCCTAGCAC … GTCTTGATTCGCTTGACGCTGCTG
Residues (chain): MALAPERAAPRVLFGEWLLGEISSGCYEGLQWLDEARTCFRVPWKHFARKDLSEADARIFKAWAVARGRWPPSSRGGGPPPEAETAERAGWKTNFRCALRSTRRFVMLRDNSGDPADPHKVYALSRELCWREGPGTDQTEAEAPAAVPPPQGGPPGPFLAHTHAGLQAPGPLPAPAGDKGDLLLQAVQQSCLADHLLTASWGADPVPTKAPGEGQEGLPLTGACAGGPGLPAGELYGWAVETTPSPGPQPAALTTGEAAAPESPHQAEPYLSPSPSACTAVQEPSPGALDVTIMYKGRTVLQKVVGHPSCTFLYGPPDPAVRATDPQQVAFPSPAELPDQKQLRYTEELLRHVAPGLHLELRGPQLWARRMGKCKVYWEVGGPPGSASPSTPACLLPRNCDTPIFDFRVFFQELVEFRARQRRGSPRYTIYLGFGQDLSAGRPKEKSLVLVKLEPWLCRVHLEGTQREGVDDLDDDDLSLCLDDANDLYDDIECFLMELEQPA
| Strand | fitted relative affinity [z-score] |
| --- | --- |
| GACGAACTGAGTCTCGTGACGTGCTAG | 0.203 |
| GACGGTATCGACACTCGGGACGTGCTA | 0.0607 |
| TTAGGACTGTACTATCGGTTAGTGCTA | 0.257 |
| TTAGTTTTCGGGTATCGGTTAGTGCTA | 6.73 |
| TTTGGTATCGACTTTCGGTTAGTGCTA | 6.62 |
| TCATCTTTCCTCACCATACTGTGCTAG | 2.63 |
| GACGAACGGAGTTTCGAGACGTGCTAG | 2.32 |
| TCATGTGTCAACTTTCTCACTGTGCTA | 1.36 |
| TCACCTTTACATTCCCCACTGTGCTAG | 2.62 |
| TCATTTTAAAGTTTCAGACTGTGCTAG | 1.44 |
| GACGGTTTCCTACTACTGACGTGCTAG | 2.2 |
| CCTGGCTCCATGGAATTTTTGTGCTAG | -0.266 |
| TTAGCTTTCAGTATCGATTAGTGCTAG | 2.33 |

Further values, each from its own experiment
| Molecule | target | assay | system | setting | scale | quantity | value |
| --- | --- | --- | --- | --- | --- | --- | --- |
| PhoQ, residues 284 288 289 292 302 303 WVSSAF | PhoP, residues 12 14 15 18 19 VQALL (Escherichia coli, UniProt P23836) | Sort-seq, item: YFP reporter | E. coli | PhoQ-PhoP variant library, together with: 10 µM Mg2+ | baseline: high Mg2+ state, higher = stronger signaling | fold induction | 11.1 |

Repeated from above (study 3):
| Strand | fitted relative affinity [z-score] |
| --- | --- |
| TTAGTTTTCGGGTATCGGTTAGTGCTA | 6.73 |
| TCATCTTTCCTCACCATACTGTGCTAG | 2.63 |
| CCTGGCTCCATGGAATTTTTGTGCTAG | -0.266 |
| TTTGGTATCGACTTTCGGTTAGTGCTA | 6.62 |
| GACGGTATCGACACTCGGGACGTGCTA | 0.0607 |
